Results collected from several papers.
Compare with care: the assays were run in different laboratories. Several values in a cell are separate wells, animals, samples, runs or records. ± gives the spread as reported.
ADRA2C: Alpha-2C adrenergic receptor (ADRA2C, Homo sapiens, UniProt P18825)
UCHL1: Ubiquitin carboxyl-terminal hydrolase isozyme L1 (UCHL1, Homo sapiens, UniProt P09936)
Voltage-dependent P/Q-type calcium channel subunit alpha-1A: Voltage-dependent P/Q-type calcium channel subunit alpha-1A (Homo sapiens, UniProt O00555)
TOP2B: DNA topoisomerase 2-beta (TOP2B, Homo sapiens, UniProt Q02880)
T1: G-quadruplex DNA (Homo sapiens); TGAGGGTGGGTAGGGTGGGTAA

SMILES = CC(C)CCC[C@@H](C)[C@H]1CC[C@@H]2[C@@H]1CC[C@H]1[C@H]2CC=C2C[C@@H](O)CC[C@@H]21; target = hh, HhC autoprocessing domain (Drosophila melanogaster, UniProt Q02936); test = autoprocessing, substrate, C-H-Y FRET reporter; setting = 200 µM; quantity = kobs; value = 0.00015 s⁻¹
SMILES = O=C(O)c1ccc([N+](=O)[O-])cc1; target = BEST1 (Homo sapiens, UniProt O76090); test = whole-cell patch clamp; test system = HEK293 transiently expressing channel; setting = concentration not given, membrane potential -40 mV; quantity = current density; value = -27.9 pA/pF and -28.4 pA/pF and -16.2 pA/pF and -48 pA/pF and -40.1 pA/pF and -38 pA/pF and -16.4 pA/pF
SMILES = CCCCCCCC(=O)c1cc(OC)c(OC)c(OC)c1CC(=O)OCC; target = Thyroid hormone receptor alpha (THRA, Homo sapiens, UniProt P10827); test = reporter gene, Gal4 hybrid reporter; setting = 10 µM; how to read = reference: vehicle; quantity = activation; value = 0.61 fold
SMILES = Cc1cc(-c2ccnc3[nH]cc(F)c23)cc(F)c1[C@@]1(O)[C@H](C)CN(C2CCS(=O)(=O)CC2)C[C@@H]1C; target = Serine/threonine-protein kinase LATS1 (LATS1, Homo sapiens, UniProt O95835); test = ATP/ADP probe binding, KiNativ; test system = HEK293T lysate; setting = 10 µM, Lys1 peptide ALYATKTLR; quantity = probe labelling inhibition; value = 91.3%
SMILES = NCCCS(=O)(=O)O; target = Sodium- and chloride-dependent taurine transporter (SLC6A6, Homo sapiens, UniProt P31641, Y138A); test = binding, microscale thermophoresis; setting = 30.5 nM, fitted curve; how to read = higher = more binding; quantity = fraction bound; value = 0.000277
SMILES = Cc1cc(Oc2ncccc2CN2CCN(c3cccc(Cl)c3)CC2)ccc1-c1c(C)c(=O)[nH]c(=O)n1C; target = ADRA2C; test = binding, radioligand binding; setting = added: [3H]rauwolscine; how to read = reference: Ki alpha2A over Ki alpha2C; quantity = selectivity ratio; value = 8
SMILES = O=C1CCC(=O)N1CCS(=O)(=O)c1c(F)c(F)nc(N2CCCC2)c1F; target = UCHL1; test = covalent, intact protein LC-MS; setting = 12.5 µM; quantity = labelling; value = 9.89%
SMILES = CNCC[C@@H](Oc1ccccc1C)c1ccccc1; target = Voltage-dependent P/Q-type calcium channel subunit alpha-1A; test = ion current, antagonist; test system = HEK293; setting = 30 µM; quantity = inhibition; value = 89%
SMILES = Nc1ncnc2c1ncn2[C@@H]1O[C@H](CO[P@](=O)(O)O[P@](=O)(O)O[P@@](=O)(O)S)[C@@H](O)[C@H]1O; target = GUK1 (Homo sapiens, UniProt Q16774); test = ITC; setting = molar ratio 3.053; quantity = ΔH; value = -0.246 kcal/mol
SMILES = Cc1cn(C2CCN(Cc3cccc(Oc4ccc(Cl)c(C(F)(F)F)c4)c3)CC2)c(=O)[nH]c1=O; target = Thymidylate kinase (DTYMK, Homo sapiens, UniProt P23919); test = enzyme activity, inhibitor; setting = no inhibition observed; quantity = highest concentration tested; value = > 40 µM
SMILES = Cc1cc(Oc2ncccc2CN2CCN(c3cccc4ccccc34)CC2)ccc1-c1c(C)c(=O)[nH]c(=O)n1C; target = ADRA2C; test = binding, radioligand binding; setting = added: [3H]rauwolscine; how to read = reference: Ki alpha2A over Ki alpha2C; quantity = selectivity ratio; value = 13
SMILES = O=C1CCCN1c1ccc(Cl)c(NS(=O)(=O)c2cccc(Cl)c2O)c1; target = malate dehydrogenase; test = enzyme activity, inhibitor; setting = 200 µM, pH 7.0, 1% DMSO, aggregation counter-screen; quantity = remaining activity; value = 92%
SMILES = O=C1NCCN1CCN1CCC(c2cn(-c3ccc(F)cc3)c3ccc(Cl)cc23)CC1; target = Voltage-dependent P/Q-type calcium channel subunit alpha-1A; test = ion current, antagonist; test system = HEK293; setting = 30 µM; quantity = inhibition; value = 99%
SMILES = OC[C@H]1OC(O)[C@H](O)[C@@H](O)[C@@H]1O (stereo partly drawn); target = Hexokinase-3 (HK3, Homo sapiens, UniProt P52790, E254A); test = substrate inhibition; setting = mutant E254A, partial substrate inhibition model, added: ATP 20 mM; quantity = V∞/Vmax ratio (b); value = 0.32 ± 0.07
SMILES = Cc1ccc(S(=O)(=O)n2nc(SCc3ccc(Cl)cc3)nc2N)cc1; target = Lysophospholipase-like protein 1 (LYPLAL1, Homo sapiens, UniProt Q5VWZ2); test = enzyme activity, activator, gel-based ABPP; test system = purified protein; setting = concentration not given, added: FP-rhodamine; how to read = reference: DMSO; quantity = probe labeling increase; value = 2.2 fold
SMILES = Cn1c(=O)c2[nH]cnc2n(C)c1=O; target = Voltage-dependent P/Q-type calcium channel subunit alpha-1A; test = ion current, antagonist, automated patch clamp; quantity = IC30; value = > 30 µM
SMILES = Cc1cc(Oc2ncccc2CN2CCN(C(c3ccccc3)c3ccccc3)CC2)ccc1-c1c(C)c(=O)[nH]c(=O)n1C; target = ADRA2C; test = binding, radioligand binding; setting = added: [3H]rauwolscine; how to read = reference: Ki alpha2A over Ki alpha2C; quantity = selectivity ratio; value = 2
SMILES = Cc1cccc(C=C(C#N)C(=O)Nc2ccc(C(=O)O)cc2)c1; target = UCHL1; test = covalent, intact protein LC-MS; setting = 12.5 µM; quantity = labelling; value = 33.8%
SMILES = COc1ccccc1-c1n[nH]c2nc(N[C@H]3CC[C@H](NS(=O)(=O)CCCOCCOCCNC(=O)OC(C)(C)C)CC3)ncc12; target = Leishmania donovani MPK (LinJ.36.0780/LinJ.11.0060); test = resin binding competition; test system = promastigote lysate; setting = 10 µM; how to read = reference: DMSO; quantity = log2 SILAC ratio heavy/light; value = 1.71
SMILES = C=CC(=O)N1CCC(COCC(=O)N2CCN(c3nc(-c4cnc(N)nc4C(F)F)nc(N4CCOC[C@@H]4C)n3)CC2)CC1; target = Cyclin-dependent kinase 11A (CDK11A, Homo sapiens, UniProt Q9UQ88); test = KINOMEscan; setting = 1 µM; quantity = remaining binding; value = 94%
SMILES = CCN1CCC[C@H]1CNC(=O)c1c(O)c(Cl)cc(Cl)c1OC; target = G-protein coupled receptor 83 (GPR83, Homo sapiens, UniProt Q9NYM4); test = β-arrestin recruitment, TANGO luminescence, refers to: GPR83; setting = concentration not given; how to read = reference: basal luminescence; quantity = log2 fold change; value = -0.071
SMILES = CC[C@@H]1[C@H](F)C(=O)N[C@@H]1COc1nccc2cc(C(N)=O)c(OC)cc12; target = Leucine-rich repeat serine/threonine-protein kinase 2 (LRRK2, Homo sapiens, UniProt Q5S007); test = ATP-site probe binding, ActivX profiling; test system = THP-1 cell lysate; setting = 0.04 mM, Lys2 site; quantity = inhibition; value = 1.9%
SMILES = O=c1nc(SCc2cc(F)cc(C(F)(F)F)c2)nc(SCc2ccc3nc(Cl)ccc3c2)[nH]1; target = TOP2B; test = decatenation; setting = 31.25 µM; quantity = mean decatenated DNA; value = 0.58%
SMILES = CCN(c1ccc(C(=O)CCl)cc1)S(C)(=O)=O; target = UCHL1; test = covalent, intact protein LC-MS; setting = 12.5 µM; quantity = labelling; value = 34.2%
SMILES = O=c1nc(SCc2cc(F)cc(C(F)(F)F)c2)nc(SCc2csc3ccc(Cl)cc23)[nH]1; target = TOP2B; test = decatenation; setting = 125 µM; quantity = mean decatenated DNA; value = 0%
SMILES = C1=C/COCc2cc(ccc2OCCN2CCCC2)Nc2nccc(n2)-c2cccc(c2)COC/1; target = Cyclin-dependent kinase 13 (CDK13, Homo sapiens, UniProt Q14004); setting = concentration not given, gene name CDC2L5; quantity = percent of control; value = 60%
SMILES = CC/C=C(\C)C=O; target = Uncharacterized protein PH0856 (Pyrococcus horikoshii, UniProt O58586); test = substrate, biocatalytic transformation; setting = pH 7, 30 °C, anaerobic, added: NADPH; quantity = conversion; value = 80%
SMILES = N[C@@H](CCC(=O)O)C(=O)O; target = glc-2 (Caenorhabditis elegans, UniProt Q17328, R351A/R352A/R353A/T283S); test = two-electrode voltage clamp; test system = Xenopus laevis oocytes; quantity = median current; value = 1 µA
SMILES = CC(C)OCc1ccccc1NS(=O)(=O)c1cccc(Cl)c1O; target = malate dehydrogenase; test = enzyme activity, inhibitor; setting = 200 µM, pH 7.0, 1% DMSO, aggregation counter-screen; quantity = remaining activity; value = 83%
SMILES = Nc1nc2c(ncn2[C@@H]2O[C@H](COP(=O)(O)O)[C@@H](O)[C@H]2O)c(=O)[nH]1; target = GUK1 (Homo sapiens, UniProt Q16774, Y81A); test = enzyme activity, NADH-coupled; setting = 1000 µM; quantity = reaction rate; value = 3.85 s⁻¹ and 4.47 s⁻¹ and 4.41 s⁻¹
SMILES = CN(C)CCCNc1nc(-c2cccc(-c3nc(NCCCN(C)C)c4ccccc4n3)n2)nc2ccccc12; target = T1, G-quadruplex DNA (Homo sapiens); test = 1H NMR titration; setting = pH 7.4, 298 K, KCl 35 mM; quantity = binding; value = binds
SMILES = O=c1ccc2c(OCCCCOc3cccc(O)c3)c3ccoc3cc2o1; target = Potassium voltage-gated channel subfamily A member 3 (Kcna3, Mus musculus, UniProt P16390); test = potassium current, blocker; test system = L929; quantity = Hill coefficient; value = 2
SMILES = CC1=C[C@H](O)CC(C)(C)[C@H]1/C=C/C(C)=C/C=C/C(C)=C/C=C/C=C(C)/C=C/C=C(C)/C=C/C1=C(C)C[C@@H](O)CC1(C)C; target = Beta-lactoglobulin (LGB, Bos taurus, UniProt P02754); test = fluorescence quenching; setting = 298 K; quantity = Stern-Volmer quenching constant; value = 33000 ± 5000 L/mol
SMILES = COc1ccc(-c2csc(NC(=O)CCl)n2)c(OC)c1; target = UCHL1; test = covalent, intact protein LC-MS; setting = 12.5 µM; quantity = labelling; value = 13.7%
SMILES = CCOC(=O)C(CC(C)CC)NS(=O)(=O)c1cccc(Cl)c1O (stereo not drawn); target = malate dehydrogenase; test = enzyme activity, inhibitor; setting = 200 µM, pH 7.0, 1% DMSO, aggregation counter-screen; quantity = remaining activity; value = 99%
SMILES = C#CCCC1(CC[C@H](NC(=O)NCCCCCCNC(=O)NCCNC(=O)COc2cccc([C@@H](CCc3ccc(OC)c(OC)c3)OC(=O)[C@@H]3CCCCN3C(=O)C(=O)C(C)(C)CC)c2)C(N)=O)N=N1.O=C(O)C(F)(F)F; target = Peptidyl-prolyl cis-trans isomerase FKBP1A (FKBP1A, Homo sapiens, UniProt P62942); test = photoaffinity labeling, in-gel fluorescence, refers to: Alexa Fluor 647 click label; setting = 0.08 µM, UV irradiation 365 nm; how to read = reference: probe over FKBP12 signal, higher = more labeling; quantity = normalized labeling ratio; value = 0.576
SMILES = Cc1nc(CSc2nc(SCc3ccc(C(C)C)cc3)nc(=O)[nH]2)cs1; target = TOP2B; test = decatenation; setting = 7.8 µM, replicate 1; quantity = decatenated DNA; value = 93.5%
SMILES = Cc1ccc(OS(=O)(=O)c2ccc(C=O)cc2)cc1; target = UCHL1; test = covalent, intact protein LC-MS; setting = 12.5 µM; quantity = labelling; value = 5.17%
SMILES = Cn1ncc(S(=O)(=O)NCc2ccccc2Cn2cncn2)c1C(=O)O; target = malate dehydrogenase; test = enzyme activity, inhibitor; setting = 200 µM, pH 7.0, 1% DMSO, aggregation counter-screen; quantity = remaining activity; value = 93%
SMILES = O=C(COP(=O)(O)O)[C@@H](O)[C@H](O)[C@H](O)COP(=O)(O)O; target = Alcohol dehydrogenase class-3 (ADH5, Homo sapiens, UniProt P11766); test = thermal proteome profiling; test system = HepG2 cell lysate; setting = concentration not given, 57 over 37 °C; how to read = reference: compound over control; quantity = thermal stability ratio; value = 0.444 and 0.49 and 0.795
SMILES = N#CC(=Cc1ccc(Cl)c([N+](=O)[O-])c1)C(=O)NCc1ccco1; target = UCHL1; test = covalent, intact protein LC-MS; setting = 12.5 µM; quantity = labelling; value = 17%
SMILES = CCNC(=O)/C=C/c1cccc(Br)c1; target = Sodium-dependent neutral amino acid transporter B(0)AT1 (SLC6A19, Homo sapiens, UniProt Q695T7); test = inhibitor, L-[14C]leucine uptake; test system = CHO-BC cells; setting = 10 µM, 6 min, unit not given, added: GPNA 3 mM, JPH203 3 µM; how to read = reference: uninhibited cells; quantity = remaining transport activity; value = 0.124

Excerpt of the above:
SMILES = Cn1c(=O)c2[nH]cnc2n(C)c1=O; target = Voltage-dependent P/Q-type calcium channel subunit alpha-1A; test = ion current, antagonist, automated patch clamp; quantity = IC30; value = > 30 µM
SMILES = O=C(O)c1ccc([N+](=O)[O-])cc1; target = BEST1 (Homo sapiens, UniProt O76090); test = whole-cell patch clamp; test system = HEK293 transiently expressing channel; setting = concentration not given, membrane potential -40 mV; quantity = current density; value = -27.9 pA/pF and -28.4 pA/pF and -16.2 pA/pF and -48 pA/pF and -40.1 pA/pF and -38 pA/pF and -16.4 pA/pF
SMILES = Cc1ccc(OS(=O)(=O)c2ccc(C=O)cc2)cc1; target = UCHL1; test = covalent, intact protein LC-MS; setting = 12.5 µM; quantity = labelling; value = 5.17%
SMILES = CCCCCCCC(=O)c1cc(OC)c(OC)c(OC)c1CC(=O)OCC; target = Thyroid hormone receptor alpha (THRA, Homo sapiens, UniProt P10827); test = reporter gene, Gal4 hybrid reporter; setting = 10 µM; how to read = reference: vehicle; quantity = activation; value = 0.61 fold
SMILES = O=c1ccc2c(OCCCCOc3cccc(O)c3)c3ccoc3cc2o1; target = Potassium voltage-gated channel subfamily A member 3 (Kcna3, Mus musculus, UniProt P16390); test = potassium current, blocker; test system = L929; quantity = Hill coefficient; value = 2
